Assay results pooled from the literature.
Compare with care: the assays were run in different laboratories. Values joined by “and” are separate records of one study, mostly repeats; a detail may differ. ± marks the error that the study gave.
Cell line: HepG2

| Structure (SMILES) | test | conditions | how to read | IC50 |
| --- | --- | --- | --- | --- |
| Cc1nn(C)cc1S(=O)(=O)NC(=O)c1ccc(-n2ccc(OCC(C)(C)C(F)(F)F)n2)nc1N1C[C@@H](C)CC1(C)C | oxygen consumption rate, inhibitor, Seahorse Mito Stress Test | 1 h | reference: DMSO 0.2% | 21.7 µM |
| CCOc1ccc(/C=N/NC(=O)c2ccc(-c3cc(OC)c(OC)c(OC)c3)nc2C)cc1 | cell growth or viability, MTT | – | – | 36.3 µM |
| CC(=NN=c1sc(-c2cccs2)nn1-c1ccc([N+](=O)[O-])cc1)c1ccccc1 | cell growth or viability | – | – | 72.6 µM |
| COc1cc(-c2ccc(-c3nnc(SC)o3)c(C)n2)cc(OC)c1OC | cell growth or viability, MTT | – | – | 13.5 µM |
| N#Cc1c(-c2ccc(Cl)cc2)c2c(=O)[nH]c(-c3ccccc3)nc2n(C2CCCCC2)c1=O | cell growth or viability, MTT | – | – | 1.17 µM |
| Cc1ccc(NCC(=O)n2ncc3c(=N)n(N[C@@H]4O[C@H](CO)[C@@H](O)[C@H](O)[C@H]4O)cnc32)cc1 | cell growth or viability, MTT | 48 h | – | 0.695 µM |
| O=C(CN1CCN(c2nc3ccccc3[nH]c2=O)CC1)Nc1ccc([N+](=O)[O-])cc1 | cell growth or viability, MTT | 24 h | – | 12.6 µM |
| N#Cc1c(-c2ccc(Cl)cc2)c2c(=O)[nH]c(CCl)nc2n(C2CCCCC2)c1=O | cell growth or viability, MTT | – | – | 2.1 µM |
| Cc1c(C(=O)/C=C/c2cc3ccccc3o2)nnn1-c1c(Cl)cc(Cl)cc1Cl | cell growth or viability, MTT | – | – | 9.7 µM |
| O=C1CSC(=S)N1CN1CCCCC1 | cell growth or viability, MTT | 48 h | – | 45.9 µM |
| Cc1ccc(C=NN=c2sc(-c3cccs3)nn2-c2ccc([N+](=O)[O-])cc2)cc1 | cell growth or viability | – | – | 281 µM and > 100 µM |
| Cc1nc2ccccc2n(CC(=O)Nc2ccc(C(=O)Nc3ccc(O)cc3)cc2)c1=O | cell growth or viability, MTT | – | – | 14.3 µM |
| COc1cc(OC)c(/C=N/NC(=O)c2ccc(-c3cc(OC)c(OC)c(OC)c3)nc2C)c(OC)c1 | cell growth or viability, MTT | – | – | 12.5 µM |
| O=C1/C(=C/c2ccc(F)cc2)N=C(c2ccccc2)N1c1ccc(S(=O)(=O)Nc2ncccn2)cc1 | – | concentration not given | – | 4.23 ± 0.17 µM |
| O=C(CN1CCN(c2nc3ccccc3[nH]c2=O)CC1)NCc1ccccc1 | cell growth or viability, MTT | 24 h | – | 12.7 µM |
| Cc1ccc(NCC(=O)n2ncc3c(=N)n(N)cnc32)cc1 | cell growth or viability, MTT | 48 h | – | 0.937 µM |
| O=C(CN1CCN(c2nc3ccccc3[nH]c2=O)CC1)Nc1ccc(F)cc1 | cell viability, MTT | 24 h | – | 8.4 µM |
| COc1cc(C2Oc3cc([C@H]4Oc5cc(O)cc(O)c5C(=O)[C@@H]4O)ccc3OC2CO)ccc1O (some centres unmarked) | mitochondrial membrane potential, high content imaging | 5 h | – | inactive |
| Cc1nc2ccccc2n(CC(=O)Nc2ccc(C(=O)Nc3cccc(Cl)c3)cc2)c1=O | cell growth, MTT | – | – | 2.8 µM |
| Cc1cccc(CNC(=O)/C(=C/c2ccc(F)cc2)NC(=O)c2ccccc2)c1 | – | concentration not given | – | 34.6 ± 1.16 µM |
| COc1cc(-c2cc(-c3ccc(Cl)cc3)[nH]c(=O)c2C#N)ccc1O | cell growth or viability, MTT | – | – | 7.38 µM |
| O=C(N/N=C/c1ccc(O)cc1)/C(=C/c1ccc(F)cc1)NC(=O)c1ccccc1 | – | concentration not given | – | 19.6 ± 0.33 µM |
| CN1CCN(c2nc3cc(C(F)(F)F)ccc3n3cccc23)CC1 | cell viability, ATP content | 24 h | – | 45.7 ± 14.6 µM |

Some of these lines once more:
| Structure (SMILES) | test | conditions | how to read | IC50 |
| --- | --- | --- | --- | --- |
| Cc1cccc(CNC(=O)/C(=C/c2ccc(F)cc2)NC(=O)c2ccccc2)c1 | – | concentration not given | – | 34.6 ± 1.16 µM |
| COc1cc(-c2cc(-c3ccc(Cl)cc3)[nH]c(=O)c2C#N)ccc1O | cell growth or viability, MTT | – | – | 7.38 µM |
| O=C(N/N=C/c1ccc(O)cc1)/C(=C/c1ccc(F)cc1)NC(=O)c1ccccc1 | – | concentration not given | – | 19.6 ± 0.33 µM |
| CN1CCN(c2nc3cc(C(F)(F)F)ccc3n3cccc23)CC1 | cell viability, ATP content | 24 h | – | 45.7 ± 14.6 µM |
